Values quoted from earlier work that unrelated publications cite.
Numbers after ± are the reported error. In brackets after ≈: the same amount, converted by molar mass.

For `COc1ccccc1OCCNCC(O)COc1cccc2[nH]c3ccccc3c12` (stereo not shown), the Cmax was 260 nM (plasma; concentration not given, total, steady state).
The free Cmax of `COCC(=O)O[C@]1(CCN(C)CCCc2nc3ccccc3[nH]2)CCc2cc(F)ccc2[C@@H]1C(C)C` is reported as 12 nM (human).
With `CCN1CCN(C(=O)c2ccc(-n3nc(-c4cccnc4)c4c3-c3sc(NC(C)=O)nc3CC4)cc2)CC1` the oral bioavailability was under 5% (mouse).
For `CCN(Cc1cccc(S(=O)(=O)[O-])c1)c1ccc(C(=C2C=CC(=[N+](CC)Cc3cccc(S(=O)(=O)[O-])c3)C=C2)c2ccccc2S(=O)(=O)[O-])cc1.[Na+].[Na+]`, the λmax was 630 nm (UV-vis absorption).
`O=C1NC(=O)C(c2ccccc2)(c2ccccc2)N1` gave a free Cmax of 4360 nM (human).
With `CC(=O)Nc1ccc(O)cc1` the free Cmax was 99900 nM (plasma; literature data).
Under “dose excreted unchanged in urine”, `CC(C)Nc1nc2cc(Cl)c(Cl)cc2n1[C@H]1O[C@@H](CO)[C@H](O)[C@@H]1O` is recorded as under 2% (human, urine; dose not given).
`COc1ccc(CCN2CCC(Nc3nc4ccccc4n3Cc3ccc(F)cc3)CC2)cc1` has a free Cmax of 0.204 nM (human).
For `CCCc1nc2c(C)cc(-c3nc4ccccc4n3C)cc2n1Cc1ccc(-c2ccccc2C(=O)O)cc1`, the Cmax was 1200 nM (plasma; concentration not given, total, steady state).
`Nc1nc(=O)n(C2CSC(CO)O2)cc1F` (stereo not shown) has a bioavailability of 73% (dog; 750 mg/kg).
`CCN(C(=O)c1c(O)c2c(Cl)cccc2n(C)c1=O)c1ccccc1` gave a solubility of under 1000 µg/mL (water).
With `Nc1ncnc2c1ncn2[C@@H]1O[C@H](CO)C[C@@H]1F` the oral bioavailability was 65 to 75% (human; 4.5 mg/kg).
`C=CC(=O)NC1CCN(c2ncc3ncnc(Nc4ccc(Oc5ccc6c(c5)ncn6C)c(C)c4)c3n2)CC1` gave a diarrhoea incidence of 1% (patients, NSCLC, HER2-mutant, previously treated; 120 mg once daily, treatment-related grade ≥3).
`CO/N=C(\C(=O)N[C@@H]1C(=O)N2C(C(=O)O)=C(CSc3nc(=O)c(=O)[nH]n3C)CS[C@H]12)c1csc(N)n1` gave a fu of 27% (human, plasma).
Under “pulse rate change”, `CCCOc1ccc(S(=O)(=O)N2CCN(CCO)CC2)cc1-c1nc2c(CCC)cn(CC)c2c(=O)[nH]1` is recorded as 5.7 bpm (healthy male volunteers; dose not given, without alcohol).
`Cc1nn(C)cc1S(=O)(=O)NC(=O)c1ccc(-n2ccc(OCC(C)(C)C(F)(F)F)n2)nc1N1C[C@@H](C)CC1(C)C` gave a fraction unbound of 0.00704 (human, plasma).
With `CC(C)[C@H](C(=O)Nc1ccc(C(=O)NO)cc1)c1ccccc1` the Tmax was 7.8 min (CD2F1 mouse; oral, 50 mg/kg single dose).
Under “unchanged dose recovered”, `CNC(=O)c1c(C)oc2cc(Oc3ncnc4cc(OC)c(OC)cc34)ccc12` is recorded as 0.5% (urine; 5 mg radiolabelled, time not given).
With `Nc1nc(NC2CC2)c2ncn([C@H]3C=C[C@@H](CO)C3)c2n1` the oral bioavailability was over 76% (mouse; dose not given).
`CNCc1cc(-c2ccccc2F)n(S(=O)(=O)c2cccnc2)c1` gave a Tmax of 60 min (human; 20 mg, single dose, fasted).
The AUC(0-inf) of `COc1cc(N2CCC(N3CCN(C)CC3)CC2)ccc1Nc1ncc(Cl)c(Nc2ccccc2P(C)(C)=O)n1` is reported as 15600 ng·h/mL (healthy subjects; 180 mg, single dose alone, rifampin study).
With `CO[C@@H](C(=O)N1Cc2n[nH]c(NC(=O)c3ccc(N4CCN(C)CC4)cc3)c2C1)c1ccccc1` the MTD was 720 mg/m2 (rat; intravenous infusion, 6-h repeated infusions).
`N[C@@H](Cc1ccc(O)c(O)c1)C(=O)O` gave a free Cmax of 49.9 nM (plasma).
Under “fluorescence quantum yield”, `CCOc1ccc(-c2nc3ccc(-c4nc5ccc(N6CCN(C)CC6)cc5[nH]4)cc3[nH]2)cc1` is recorded as 0.541 ± 0.002 (PBS with 0.1% SDS).
With `O=C1Nc2ccc(Cl)cc2[C@@](C#CC2CC2)(C(F)(F)F)O1` the solubility was under 1000 µg/mL (water).
Under “fraction excreted unchanged”, `C=CC[C@@H]1/C=C(\C)C[C@H](C)C[C@H](OC)[C@H]2O[C@@](O)(C(=O)C(=O)N3CCCC[C@H]3C(=O)O[C@H](/C(C)=C/[C@@H]3CC[C@@H](O)[C@H](OC)C3)[C@H](C)[C@@H](O)CC1=O)[C@H](C)C[C@@H]2OC` is recorded as under 1% (human, urine; dose not given).
With `Nc1ccn([C@H]2CC[C@@H](CO)O2)c(=O)n1` the oral bioavailability was over 80% (human; 1.5 mg).
`CC(=O)O[C@@]12CO[C@@H]1C[C@H](O)[C@@]1(C)C(=O)[C@H](O)C3=C(C)[C@@H](OC(=O)[C@H](O)[C@@H](NC(=O)OC(C)(C)C)c4ccccc4)C[C@@](O)([C@@H](OC(=O)c4ccccc4)[C@H]21)C3(C)C` has a diarrhoea incidence of 42% (human; concentration not given, clinical).
`COc1cc(O)c(C(=O)c2ccccc2)cc1S(=O)(=O)O`: “plasma fraction unbound” 0.00942 (plasma).
With `Cc1cn([C@H]2C[C@H](N=[N+]=[N-])[C@@H](CO)O2)c(=O)[nH]c1=O` the oral bioavailability was 86% (human; 300 mg, tablet).
For `CC(=O)C(C)n1ncn(-c2ccc(N3CCN(c4ccc(OC[C@H]5CO[C@](Cn6cncn6)(c6ccc(Cl)cc6Cl)O5)cc4)CC3)cc2)c1=O` (stereo partly shown), the pKa (basic) was 3.7.
For `C#CCC(Cc1cnc2nc(N)nc(N)c2n1)c1ccc(C(=O)N[C@@H](CCC(=O)O)C(=O)O)cc1` (stereo partly shown), the solubility was under 1000 µg/mL (water).
`C#C[C@]1(O)CC[C@H]2[C@@H]3CCc4cc(O)ccc4[C@H]3CC[C@@]21C`: “Cmax, geometric mean” 0.101 ng/mL (human, fed; 0.035 mg, multiple doses).
`COC(=O)N[C@@H](C)CNc1nccc(-c2cn(C(C)C)nc2-c2cc(Cl)cc(NS(C)(=O)=O)c2F)n1` has an excreted fraction of 47% (human, feces; dose not given).
`CC(C)(CO)c1cc2cc(NC(=O)C3(c4ccc5c(c4)OC(F)(F)O5)CC3)c(F)cc2n1C[C@@H](O)CO` has a logP octanol/water of 3.6.
`Cc1cc(-c2nccc3c2ccn3CC(=O)Nc2ccc(-c3cnccn3)cn2)ccn1` has a Cmax, total of 6400 nM (dog; 30 mg/kg/day, 1 month, repeat dosing).
The Cmin,ss of `COc1cc2c(Oc3ccc4[nH]c(C)cc4c3F)ccnc2cc1OCC1(N)CC1` is reported as 20 to 50 ng/mL (adult humans; 12 mg/day continuous).
For `CC(C)(CO)c1cc2cc(NC(=O)C3(c4ccc5c(c4)OC(F)(F)O5)CC3)c(F)cc2n1C[C@@H](O)CO`, the solubility was 119 µg/mL (≈ 229 µM) (FaSSIF; literature value).
For `CN(C)C(=N)N=C(N)N`, the blood-to-plasma ratio was 1 (human liver failure patients).
`NC(=O)OCC(COC(N)=O)c1ccccc1` gave a solubility of under 1000 µg/mL (water).
`CCCCc1oc2ccccc2c1C(=O)c1cc(I)c(OCCN(CC)CC)c(I)c1` gave a diarrhoea incidence of under 2% (human; concentration not given, clinical).
The solubility of `NC(=O)N1c2ccccc2CC(=O)c2ccccc21` is reported as under 1000 µg/mL (water).
With `COc1ccccc1[C@H](Cn1c(=O)n(C(C)(C)C(=O)O)c(=O)c2c(C)c(-c3ncco3)sc21)OC1CCOCC1` the AUC was 312 ng·h/mL (rat; 3.0 mg/kg, at maximal efficacious dose).
`COCCc1ccc(OCC(O)CNC(C)C)cc1` (stereo not shown): “AUC(0-48 h), geometric mean” 474 ng·h/mL (human; 100 mg).
For `CC#CC(=O)N1CCC[C@H]1c1nc(-c2ccc(C(=O)Nc3ccccn3)cc2)c2c(N)nccn12`, the AUC(0-last) was 1850 ng·h/mL (human; 100 mg twice daily).
For `COc1cc(N2CCC3(CCN(C)CC3)CC2)ccc1Nc1ncc(Cl)c(Nc2ccccc2P(C)(C)=O)n1`, the CL/F was 12.8 to 28.2 L/h (NSCLC patients; oral, 30 300 mg single dose).
`COC(=O)N[C@H](C(=O)N[C@@H](Cc1ccccc1)[C@@H](O)CN(Cc1ccc(-c2ccccn2)cc1)NC(=O)[C@@H](NC(=O)OC)C(C)(C)C)C(C)(C)C` gave a Cmax of 7660 nM (plasma; concentration not given, total, steady state).
`FC(F)(F)c1ccc(CNc2ccc(Cc3c[nH]c4ncc(Cl)cc34)cn2)cn1` gave an AUC(0-6 h) of 42800 ng·h/mL (human, plasma; 1000 mg/day, day 15, observed mean).
With `CCc1cc2c(cc1CC)CC(NC[C@H](O)c1ccc(O)c3[nH]c(=O)ccc13)C2` the systemic clearance was 5 mL/min/kg (human).
For `CS(=O)(=O)OCCCCOS(C)(=O)=O`, the solubility was under 1000 µg/mL (water).
With `CCOc1ccccc1OCCN[C@H](C)Cc1ccc(OC)c(S(N)(=O)=O)c1` the crossover pressure was 215 to 230 bar (supercritical CO2).
The log KOA of `C[Si]1(C)O[Si](C)(C)O[Si](C)(C)O[Si](C)(C)O1` is reported as 4.31 (dry 1-octanol/air; 25 °C).
For `CN(C)C(=O)c1cc2cnc(Nc3ccc(N4CCNCC4)cn3)nc2n1C1CCCC1`, “adverse event incidence” read 42.1% (item: neutropenia; advanced solid tumour or lymphoma patients; dose not given, continuous dosing; baseline: patients).
`COc1ccc2nc([S@@+]([O-])Cc3ncc(C)c(OC)c3C)[nH]c2c1` gave a crossover pressure of 200 to 220 bar (supercritical CO2).
For `N#CCNC(=O)c1ccc(-c2ccnc(Nc3ccc(N4CCOCC4)cc3)n2)cc1`, the AUC(0-inf) increase was 97% (severe hepatic impairment; dose not given; baseline: matched healthy participants).
